Experimental data from different studies.
Protocols differ between the studies behind these lines.
Cell line: CCRF-CEM

SMILES	test	conditions	quantity	value
CCCCN1CCN(c2ccc3[nH]c(-c4ccc5[nH]c(-c6cc(OC)c(OC)c(OC)c6)nc5c4)nc3c2)CC1	cell growth, NCI-60 SRB	10 µM, 48 h	growth percent	25.1%
CSc1nc(-c2ccc(Cl)cc2)c2c(NC(=O)c3ccccc3)nnc-2[nH]1	NCI60 SRB	10 µM	growth percent	93.1%
CCCCN1CCN(c2ccc3nc(-c4ccc5nc(-c6cc(OC)ccc6OC)[nH]c5c4)[nH]c3c2)CC1	cell growth, NCI-60 SRB	10 µM, 48 h	growth percent	96.4%
Cc1cc(-c2ccccc2)n(-c2nc(-c3ccc(Cl)cc3)c3c(NC(=O)c4ccccc4)nnc-3[nH]2)n1	NCI60 SRB	10 µM	growth percent	96.3%
Cn1cncc1C1=CN(c2ncnc3[nH]cnc23)CCS1		leukaemia cell line	GI50	26.9 µM
Cc1n[nH]c2nc(-c3ccc(Cl)cc3)c3c(NC(=O)c4ccccc4)nnc-3n12	NCI60 SRB	10 µM	growth percent	90.3%
CCCCN1CCN(c2ccc3[nH]c(-c4ccc5[nH]c(-c6ccc(OCC)c(OCC)c6)nc5c4)nc3c2)CC1	cell growth, NCI-60 SRB	10 µM, 48 h	growth percent	-0.37%
Cc1cc(=O)[nH]c(=O)n1Cc1cn(-c2c3ccccc3nc3ccccc23)nn1	NCI60 single dose	10 µM	growth	64.7%
Nc1nc(S)nc(O)c1N=Cc1cn(-c2ccccc2)nc1-c1ccc(Cl)cc1	cytotoxicity, differential nuclear staining		CC20	6.06 µM
Cc1cc(C)n(-c2nc(-c3ccc(Cl)cc3)c3c(NC(=O)c4ccccc4)nnc-3[nH]2)n1	NCI60 SRB	10 µM	growth percent	97.8%
O=C1NC(c2ccccc2)(c2ccccc2)C(=O)N1Cc1cn(-c2cc3ccccc3oc2=O)nn1	NCI60 single dose	10 µM	growth	92.2%
Cc1cc(C)n(C(=S)[S][Au][PH](CCCCCC[PH]([Au][S]C(=S)n2nc(C)cc2C)(c2ccccc2)c2ccccc2)(c2ccccc2)c2ccccc2)n1	cell growth, NCI-60 screen	leukaemia	log TGI	-5.72 log10 M
CCOc1ccc(-c2nc3cc(-c4nc5cc(N6CCN(C)CC6)ccc5[nH]4)ccc3[nH]2)cc1OCC	cell growth, NCI-60 SRB	10 µM, 48 h	growth percent	11.3%
NNc1nc(-c2ccc(Cl)cc2)c2c(NC(=O)c3ccccc3)nnc-2[nH]1	NCI60 SRB	10 µM	growth percent	92.9%
Cc1ccc(-c2cc3ccccc3c(N)n2)cc1	annexin V-FITC/PI flow cytometry, refers to: annexin V+ PI-	2.5 µM, 72 h	early apoptotic cells	10.7%
CCCCN1CCN(c2ccc3[nH]c(-c4ccc5[nH]c(-c6ccc(C(F)(F)F)cc6)nc5c4)nc3c2)CC1	cell growth, NCI-60 SRB	10 µM, 48 h	growth percent	-32.6%
O=C(Nc1nnc2n3c(Cc4ccccc4)n[nH]c3nc(-c3ccc(Cl)cc3)c1-2)c1ccccc1	NCI60 SRB	10 µM	growth percent	96.1%
O=c1ccn(Cc2cn(-c3cc4ccccc4oc3=O)nn2)c(=O)[nH]1	NCI60 single dose	10 µM	growth	106%
CN1CCN(c2ccc3[nH]c(-c4ccc5[nH]c(-c6ccc(C(F)(F)F)cc6)nc5c4)nc3c2)CC1	cell growth, NCI-60 SRB	10 µM, 48 h	growth percent	21.2%

For quick reference, copied from above:
SMILES	test	conditions	quantity	value
CCCCN1CCN(c2ccc3nc(-c4ccc5nc(-c6cc(OC)ccc6OC)[nH]c5c4)[nH]c3c2)CC1	cell growth, NCI-60 SRB	10 µM, 48 h	growth percent	96.4%
Cc1cc(-c2ccccc2)n(-c2nc(-c3ccc(Cl)cc3)c3c(NC(=O)c4ccccc4)nnc-3[nH]2)n1	NCI60 SRB	10 µM	growth percent	96.3%
